Assay results pooled from the literature.
Values joined by “and” are separate records of one study, mostly repeats; a detail may differ.
Target: Serine/threonine-protein kinase N1 (PKN1, Homo sapiens, UniProt Q16512)

C=CC(=O)N1CCc2ccc(-n3c(=O)ccc4cnc5ccc(-c6cnn(C)c6)cc5c43)cc21
remaining binding (KINOMEscan; 1 µM; baseline: DMSO control): 100%

CS(=O)(=O)Nc1cccc(-c2csc3cnc(Nc4ccc(N5CCN(CCCCCOc6cccc7c6C(=O)N(C6CCC(=O)NC6=O)C7=O)CC5)cc4)nc23)c1 (stereo not drawn)
inhibition (probe labelling, inhibitor, KiNativ chemoproteomics; MOLT-4; 1 µM): -21.2%

Nc1ncc(-c2cc(-c3cnn(CC(F)(F)F)c3)ncc2F)nc1C(=O)NC1CNCC(F)C1 (stereo not drawn)
remaining activity (enzyme activity; 1 µM; baseline: DMSO control): 94.5%

O=C(Cc1ccc(OCc2ccccc2)cc1)NC1(C(=O)O)CCN(C(=O)c2ccc(-c3cccc(Cl)c3)cc2)CC1
activity vs control (enzyme activity, inhibitor; 10 µM): 114%

Cc1cnc2nc1Nc1cccc(c1)COC/C=C/COCc1cc(ccc1OCCN1CCOCC1)N2
remaining binding (binding; 0.1 µM): 91%

CC(C)=CC1OC(C)(C)C2C=C3C(=O)C(Cl)=CC(O)C3C3C(O)C4OC4C(=O)C132 (stereo not drawn)
remaining binding (cell-free assay, competition with immobilised ligand; 10 µM): 96%

C=CC(=O)N1CCCC(n2c(=O)c3ncccc3n(Cc3ccc(Oc4ccccc4)cc3)c2=O)C1 (stereo not drawn)
remaining binding (cell-free assay, competition with immobilised ligand; 1 µM): 86%

NC(=O)C[C@H]1CCc2sc3ncnc(O[C@H]4CC[C@H](N5CCOCC5)CC4)c3c21
inhibition (enzyme activity, inhibitor; 10 µM): 6%

COc1cc(Nc2nccc(-c3cnn4nc(OC)ccc34)n2)cc(C(F)(F)F)c1
remaining binding (binding, competition with immobilised ligand; 1 µM): 100%

COc1c(Cl)cccc1Nc1c(-c2ccncc2C#C[C@@]2(C)CCCN2C(=O)/C=C/CN(C)C)[nH]c2c1C(=O)NCC2
remaining binding (binding, competition with immobilised ligand; 3 µM): 100%

Cc1cccc(O[C@H]2CCC[C@@H](C(C)CNCc3ccncc3)C2)c1 (relative stereo)
inhibition (enzyme activity, inhibitor; 1 µM): -2%

C=CC(=O)N1Cc2nc(-c3cc(-c4cc(Cl)cnc4Cl)c(F)cc3F)n(-c3ccncn3)c2C1
inhibition (cell-free assay, inhibitor; 1 µM): 1.7%

C=CC(=O)Nc1cccc(-c2cnc3[nH]cc(C(=O)NC(C)(C)C)c3n2)c1
inhibition (kinase activity; 0.1 µM): -8% and -2%

CNC(=O)C1CCN(c2cc(C)c(F)cc2NC(=O)c2ccc(-c3cc(O)ccc3C)c(C)c2)CC1
remaining binding (binding, competition with immobilised ligand; 1 µM): 83%

CNC(=O)C[C@H](Cc1ccc(C#N)cc1)NC(=O)c1cc(-c2ccc(CN[C@H](C)c3ccc(C)cc3)o2)ccc1Cl
activity vs control (enzyme activity, inhibitor; 1 µM): 91%

Excerpt of the above:
CNC(=O)C1CCN(c2cc(C)c(F)cc2NC(=O)c2ccc(-c3cc(O)ccc3C)c(C)c2)CC1
remaining binding (binding, competition with immobilised ligand; 1 µM): 83%

CNC(=O)C[C@H](Cc1ccc(C#N)cc1)NC(=O)c1cc(-c2ccc(CN[C@H](C)c3ccc(C)cc3)o2)ccc1Cl
activity vs control (enzyme activity, inhibitor; 1 µM): 91%
